Experimental data from different studies.
Every numbered part comes from another study and shows a few of its results, in no order. Substitutions count along the parent as printed.

Series 1
Target: ABI1, truncated, D143A, DHFR fusion (Arabidopsis thaliana)
Technique: DHFR PCA, deep sequencing
Matrix: yeast
Setting: methotrexate growth selection, single substitutions
With: (+)-ABA 0 µM
Baseline: wild-type fitted maximum
Direction: higher = stronger binding
Starting sequence: PYL1, truncated, DHFR fusion (Arabidopsis thaliana); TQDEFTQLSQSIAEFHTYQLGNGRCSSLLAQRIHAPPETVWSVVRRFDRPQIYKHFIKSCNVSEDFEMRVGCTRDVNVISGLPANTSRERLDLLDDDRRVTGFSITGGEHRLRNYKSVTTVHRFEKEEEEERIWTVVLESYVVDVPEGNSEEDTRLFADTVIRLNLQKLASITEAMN
Change | relative binding score
E14L | 2.87%
D92K | -3.22%
A84I | 35.3%
Q51A | 24.4%
I57N | -1.3%
N114M | -2.02%
E14I | -0.368%
H110K | 25.4%
L112T | 1.29%
L82P | 5.4%
R132C | 30%
A13W | 0.37%
C72Q | 35%
P146E | 3.93%
D3S | 19.2%

Series 2
Target: Interferon regulatory factor 5, full length, phosphomimetic (IRF5, Homo sapiens, UniProt Q13568-2, residues 1-514, S451D/S453D/S456D/S462D)
Technique: protein-binding microarray
Molecule type: double-stranded DNA, one strand shown
Matrix: in vitro
Concentration: 940 nM top
Setting: 60-bp whole probe
With: salmon DNA 0.4 mg/ml
Baseline: random background probes
Direction: higher = stronger binding
Shared flanks, not repeated: GCCTAGCAC … GTCTTGATTCGCTTGACGCTGCTG
Strand | fitted relative affinity
GACGGTATCGGTATCGAGACGTGCTAG | 8.45 z-score
TCATTTATGCTTTCTTTAACTGTGCTA | 1.43 z-score
GACAGTTTCCTTTCCCTGACGTGCTAG | 3.15 z-score
GACGGACAGGGGTATCGGGACGTGCTA | 0.571 z-score
TTAGAACTAAGTCTCGATTAGTGCTAG | 1.93 z-score
GACAAACTGGGGACTGGAGACGTGCTA | 0.0199 z-score
CTCCCTCTGTAAGTCAGCACGTGCTAG | -0.147 z-score
TTAGATCTCAGTTTCGGTTAGTGCTAG | 9.44 z-score
GTTTTTTAAAGTTTCAGTGAGTGCTAG | 1.44 z-score
TTAGGTATCCTTATCCTCTAGTGCTAG | 0.273 z-score
TCACTTCCATTTTCTGAAACTGTGCTA | 1.75 z-score
TCATTTTCATGCTCTTATACTGTGCTA | 1.55 z-score
TTAGGTATCGACACTGGGTTTGTGCTA | 4.93 z-score
GACGGACTGGGGTTTTGGGACGTGCTA | 0.147 z-score
GATCCTTCCCCTCTAGGTTCGTGCTAG | 0.968 z-score
ACCCTGCCTAAAGCTAGTTTGTGCTAG | 0.0277 z-score
TTAGAACTGAGTAGCGATTAGTGCTAG | -0.405 z-score
TTAGATATCAGTAGCGATTAGTGCTAG | -0.0514 z-score
GAAGTAATTTCAAACCACAGGTGCTAG | 0.0758 z-score

Series 3
Target: Protein C-ets-1 (ETS1, Homo sapiens, UniProt P14921, residues 1-441, Y397A, full length assumed)
Technique: protein-binding microarray
Molecule type: double-stranded DNA, one strand shown
Matrix: in vitro
Concentration: not given
Setting: k-mer, scored over probes, only values ≥0.25
Direction: higher = stronger binding
Target sequence (chain): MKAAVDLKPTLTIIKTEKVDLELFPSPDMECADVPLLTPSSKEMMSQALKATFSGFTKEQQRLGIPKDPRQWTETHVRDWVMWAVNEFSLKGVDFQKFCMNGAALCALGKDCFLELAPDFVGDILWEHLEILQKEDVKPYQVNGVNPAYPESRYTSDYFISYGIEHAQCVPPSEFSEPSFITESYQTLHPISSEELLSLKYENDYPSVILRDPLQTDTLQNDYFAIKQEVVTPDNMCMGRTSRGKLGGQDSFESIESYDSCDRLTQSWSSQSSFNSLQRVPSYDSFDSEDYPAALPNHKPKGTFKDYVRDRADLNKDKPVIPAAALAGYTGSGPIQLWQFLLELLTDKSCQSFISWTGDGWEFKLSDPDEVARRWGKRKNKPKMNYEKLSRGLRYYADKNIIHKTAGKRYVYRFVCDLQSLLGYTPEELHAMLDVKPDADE
Strand | E-score
GCAAACCA | 0.376
TAATTGCA | 0.261
ATCTGTAC | 0.262
CAATTATG | 0.28
ACTGCCAA | 0.302
ATACTGCA | 0.253
CATAGCAA | 0.281
ACATGCGC | 0.285
ACAACATG | 0.309
CAACAGCA | 0.291
AATGCGCA | 0.336
GTGTCGTA | 0.269
ACCCGCCG | 0.305
ATTGTCGA | 0.348
ATTTTGTC | 0.277
ACGGAAAC | 0.268

Series 4
Target: Sal-like protein 4, full length isoform A (SALL4, Homo sapiens, UniProt Q9UJQ4, residues 1-1053)
Sequence of UniProt Q9UJQ4 (whole entry, looked up): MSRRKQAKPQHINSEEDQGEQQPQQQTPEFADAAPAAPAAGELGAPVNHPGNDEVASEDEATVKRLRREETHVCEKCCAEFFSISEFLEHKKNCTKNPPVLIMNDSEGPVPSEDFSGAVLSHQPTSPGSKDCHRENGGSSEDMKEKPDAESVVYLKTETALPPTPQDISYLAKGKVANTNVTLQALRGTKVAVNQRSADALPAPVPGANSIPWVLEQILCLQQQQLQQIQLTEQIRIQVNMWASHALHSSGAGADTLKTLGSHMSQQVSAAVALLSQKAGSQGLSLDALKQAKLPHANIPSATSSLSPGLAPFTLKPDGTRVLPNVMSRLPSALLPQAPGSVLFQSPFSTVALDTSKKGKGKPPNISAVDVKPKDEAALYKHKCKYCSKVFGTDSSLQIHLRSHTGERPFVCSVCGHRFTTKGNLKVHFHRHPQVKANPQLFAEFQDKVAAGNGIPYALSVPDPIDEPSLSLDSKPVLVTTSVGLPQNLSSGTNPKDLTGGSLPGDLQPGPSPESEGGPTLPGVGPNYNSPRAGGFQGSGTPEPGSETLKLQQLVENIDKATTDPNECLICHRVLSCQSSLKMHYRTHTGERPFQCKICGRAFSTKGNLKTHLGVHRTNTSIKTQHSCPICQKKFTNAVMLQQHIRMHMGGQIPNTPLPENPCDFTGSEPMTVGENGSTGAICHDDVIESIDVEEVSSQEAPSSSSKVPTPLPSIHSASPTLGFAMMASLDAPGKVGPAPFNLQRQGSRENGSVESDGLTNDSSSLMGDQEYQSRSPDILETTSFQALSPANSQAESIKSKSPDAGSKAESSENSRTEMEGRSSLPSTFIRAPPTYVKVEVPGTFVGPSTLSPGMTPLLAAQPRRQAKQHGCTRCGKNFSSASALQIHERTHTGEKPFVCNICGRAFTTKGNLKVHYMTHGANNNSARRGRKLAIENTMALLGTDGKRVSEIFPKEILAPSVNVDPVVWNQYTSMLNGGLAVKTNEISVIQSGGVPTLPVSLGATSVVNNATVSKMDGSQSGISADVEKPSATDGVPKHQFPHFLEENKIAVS
Technique: universal PBM
Molecule type: double-stranded DNA, one strand shown
Matrix: in vitro
Concentration: 600 nM
Setting: 8-mer, flanks averaged, mean of replicates
Direction: higher = stronger binding
Strand | E-score
CTAGACAG | -0.125
CAAACTGG | -0.259
CTAGCTAC | -0.152
GCTAGGAA | -0.103
GGCGATGA | -0.177
CTCTCCGC | -0.0954
ACTTTTGG | 0.0465
AGTAGCTC | -0.115
AAATCGCT | 0.0352
AGGTTGAC | 7.5e-05
TCGGGTCA | -0.129
ACTCCCCT | -0.159
GTTCGAAC | -0.0206
AGTCTTTG | 0.128
ACGATTTA | 0.274
CGTTGCTA | -0.0294
GAGAGTCA | 0.0874
AGGAGGTA | -0.00239
CCATTATA | 0.278
CAACCATG | -0.00317
ATCCGCTA | -0.0518
CTACATCA | 0.0537
AACAGCCC | -0.2
AGCATTAC | -0.0127
TACGTTGA | 0.192

Series 5
Target: CCND3, cyclin fold, Cln2 fusion (human)
Technique: yeast growth competition, sequencing
Matrix: yeast
Setting: weak parent motif
Baseline: not given
Direction: higher = stronger binding
Starting sequence: CDC42EP1 docking peptide (human); SLVVGKLSFDSSP; partner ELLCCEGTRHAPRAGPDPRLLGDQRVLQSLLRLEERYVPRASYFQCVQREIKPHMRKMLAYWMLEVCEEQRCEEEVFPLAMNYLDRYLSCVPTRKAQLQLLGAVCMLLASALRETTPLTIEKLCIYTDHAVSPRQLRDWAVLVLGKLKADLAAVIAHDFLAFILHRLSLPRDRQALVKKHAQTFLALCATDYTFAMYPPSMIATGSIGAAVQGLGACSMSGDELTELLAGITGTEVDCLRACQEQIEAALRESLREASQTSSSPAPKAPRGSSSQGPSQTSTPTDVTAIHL
Change | normalised enrichment score
SAVVGKLSFDSSP [L2A] | -0.242
SLVVGKLSFDSSA [P13A] | -0.0369
SLVVGKASFDSSP [L7A] | -0.0447
SLVVGKLAFDSSP [S8A] | -0.293
SLVVAKLSFDSSP [G5A] | -0.396
SLVAGKLSFDSSP [V4A] | -0.217

Repeated from above (series 4):
Strand | E-score
GGCGATGA | -0.177
CCATTATA | 0.278
GAGAGTCA | 0.0874
TCGGGTCA | -0.129
AGGAGGTA | -0.00239
GCTAGGAA | -0.103
AGTCTTTG | 0.128
ACTTTTGG | 0.0465
ACTCCCCT | -0.159
TACGTTGA | 0.192
ATCCGCTA | -0.0518
